# Assay results collected from several papers.
# Parts stem from different laboratories: compare values within a part only.

# Set 1 — method: universal PBM; form: double-stranded DNA, one strand shown; sample: in vitro; tested at: not given; direction: higher = stronger binding
# Target: Sal-like protein 4, full length isoform B (SALL4, Homo sapiens, UniProt Q9UJQ4-2, residues 1-616)
# Setting: 8-mer, flanks averaged, mean of replicates
# Construct (chain): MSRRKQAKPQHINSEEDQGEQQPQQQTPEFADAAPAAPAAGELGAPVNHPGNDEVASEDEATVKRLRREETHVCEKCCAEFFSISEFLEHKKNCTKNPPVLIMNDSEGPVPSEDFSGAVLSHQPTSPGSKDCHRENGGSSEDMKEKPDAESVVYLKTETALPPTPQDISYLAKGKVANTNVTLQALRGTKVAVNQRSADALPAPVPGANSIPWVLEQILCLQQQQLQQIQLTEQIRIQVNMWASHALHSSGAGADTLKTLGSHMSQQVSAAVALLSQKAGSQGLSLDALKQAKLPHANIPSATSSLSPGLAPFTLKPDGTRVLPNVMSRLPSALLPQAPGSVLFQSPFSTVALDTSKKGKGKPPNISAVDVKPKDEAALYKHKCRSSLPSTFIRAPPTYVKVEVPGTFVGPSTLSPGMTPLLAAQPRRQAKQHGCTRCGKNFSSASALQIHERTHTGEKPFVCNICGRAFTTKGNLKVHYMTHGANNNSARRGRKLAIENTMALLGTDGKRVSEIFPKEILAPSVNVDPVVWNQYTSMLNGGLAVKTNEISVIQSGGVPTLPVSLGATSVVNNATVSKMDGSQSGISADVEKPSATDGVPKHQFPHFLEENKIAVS
Oligonucleotide,E-score
ACTACGTC,0.0318
CGTCTTGC,-0.0861
AAAGCGCG,-0.165

# Set 2 — method: protein binding microarray; form: double-stranded DNA, one strand shown; sample: in vitro; tested at: not given; relative to: not given; direction: higher = stronger binding
# Target: Histone acetyltransferase KAT6A, winged helix 2, GST fusion (KAT6A, Homo sapiens, UniProt Q92794, residues 85-181)
# Setting: 8-mer, flanks averaged, mean of 2 arrays, mostly near background
# Construct (chain): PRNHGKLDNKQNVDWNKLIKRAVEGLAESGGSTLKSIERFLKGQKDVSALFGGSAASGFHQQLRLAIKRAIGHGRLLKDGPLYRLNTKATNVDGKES
Oligonucleotide,E-score
CCAAGTCG,0.0615
GGCCAGAA,0.143
TCGCAGCA,0.116
CTACACAG,-0.0271
ATTTAGGC,0.0272
AAAAGTTC,-0.00138

# Other studies, line by line
# CBF1 full length, His-tagged: Centromere-binding protein 1, full length, His-tagged (CBF1, Saccharomyces cerevisiae, UniProt P17106, residues 1-351)
# UniProt P17106, sequence (whole entry, looked up): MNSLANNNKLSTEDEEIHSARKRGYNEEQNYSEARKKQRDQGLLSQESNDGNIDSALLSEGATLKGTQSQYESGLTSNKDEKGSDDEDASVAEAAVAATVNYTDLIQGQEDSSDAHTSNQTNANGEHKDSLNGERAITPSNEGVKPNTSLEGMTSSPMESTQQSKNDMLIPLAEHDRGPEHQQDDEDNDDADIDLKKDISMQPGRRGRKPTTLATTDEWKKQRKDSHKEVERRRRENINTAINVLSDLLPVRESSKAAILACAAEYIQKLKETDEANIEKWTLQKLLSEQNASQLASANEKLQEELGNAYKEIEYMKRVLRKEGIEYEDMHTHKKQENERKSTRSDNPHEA
Substance,target,assay,test system,setting,scale,measurement,value
GCTCTAGTAATTGTCTACGTGCCGAATCGTTTCTCTGTCTTGATTCGCTTGACGCTGCTG,"CBF1 full length, His-tagged",competition protein-binding microarray,"double-stranded DNA, one strand shown, in vitro","2 µM, whole 60-bp probe, lowest competitor level, added: Pho4 competitor, 0.05 µM",higher = stronger binding,fluorescence intensity,139 a.u.
"PhoQ, residues 284 288 289 292 302 303 AGHLVA","PhoP, residues 12 14 15 18 19 SQCLL (Escherichia coli, UniProt P23836)","Sort-seq, refers to: YFP reporter",E. coli,"PhoQ-PhoP variant library, added: 10 µM Mg2+","relative to: high Mg2+ state, higher = stronger signaling",fold induction,16.6
TGCGCAACAACTTGGGGGGTGGGTGTATGTCTAGAAGTCTTGATTCGCTTGACGCTGCTG,"CBF1 full length, His-tagged",competition protein-binding microarray,"double-stranded DNA, one strand shown, in vitro","2 µM, whole 60-bp probe, lowest competitor level, added: Pho4 competitor, 0.05 µM",higher = stronger binding,fluorescence intensity,118 a.u.

# For quick reference, copied from above (set 2):
Oligonucleotide,E-score
AAAAGTTC,-0.00138
